Measurements of several laboratories.
Compare with care: the assays were run in different laboratories.
Read-out: binding
CDK19: Cyclin-dependent kinase 19 (CDK19, Homo sapiens, UniProt Q9BWU1)
Sequence of UniProt Q9BWU1 (whole entry, looked up): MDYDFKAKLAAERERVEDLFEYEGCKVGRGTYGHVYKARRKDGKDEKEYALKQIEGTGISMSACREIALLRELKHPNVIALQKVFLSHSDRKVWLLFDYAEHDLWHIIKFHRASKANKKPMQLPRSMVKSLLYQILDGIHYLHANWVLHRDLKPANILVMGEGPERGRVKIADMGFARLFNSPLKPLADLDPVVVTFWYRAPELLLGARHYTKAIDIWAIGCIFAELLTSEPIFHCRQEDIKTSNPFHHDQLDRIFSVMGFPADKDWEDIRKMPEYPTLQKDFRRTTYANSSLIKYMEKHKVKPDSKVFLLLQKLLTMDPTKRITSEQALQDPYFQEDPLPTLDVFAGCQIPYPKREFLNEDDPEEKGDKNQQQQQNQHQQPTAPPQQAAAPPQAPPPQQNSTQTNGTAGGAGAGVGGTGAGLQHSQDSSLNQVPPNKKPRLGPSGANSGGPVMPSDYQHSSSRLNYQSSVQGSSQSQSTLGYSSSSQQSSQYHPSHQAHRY
Sequence of UniProt P11802 (whole entry, looked up): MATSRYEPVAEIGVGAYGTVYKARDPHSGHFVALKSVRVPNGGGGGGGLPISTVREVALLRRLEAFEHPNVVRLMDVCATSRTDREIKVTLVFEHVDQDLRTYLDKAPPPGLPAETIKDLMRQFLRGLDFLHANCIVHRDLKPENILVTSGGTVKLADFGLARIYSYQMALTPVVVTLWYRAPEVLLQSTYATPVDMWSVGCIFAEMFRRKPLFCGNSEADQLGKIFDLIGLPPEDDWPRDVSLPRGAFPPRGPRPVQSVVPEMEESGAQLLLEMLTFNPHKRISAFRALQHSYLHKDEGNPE
Sequence of UniProt Q9UPZ9 (whole entry, looked up): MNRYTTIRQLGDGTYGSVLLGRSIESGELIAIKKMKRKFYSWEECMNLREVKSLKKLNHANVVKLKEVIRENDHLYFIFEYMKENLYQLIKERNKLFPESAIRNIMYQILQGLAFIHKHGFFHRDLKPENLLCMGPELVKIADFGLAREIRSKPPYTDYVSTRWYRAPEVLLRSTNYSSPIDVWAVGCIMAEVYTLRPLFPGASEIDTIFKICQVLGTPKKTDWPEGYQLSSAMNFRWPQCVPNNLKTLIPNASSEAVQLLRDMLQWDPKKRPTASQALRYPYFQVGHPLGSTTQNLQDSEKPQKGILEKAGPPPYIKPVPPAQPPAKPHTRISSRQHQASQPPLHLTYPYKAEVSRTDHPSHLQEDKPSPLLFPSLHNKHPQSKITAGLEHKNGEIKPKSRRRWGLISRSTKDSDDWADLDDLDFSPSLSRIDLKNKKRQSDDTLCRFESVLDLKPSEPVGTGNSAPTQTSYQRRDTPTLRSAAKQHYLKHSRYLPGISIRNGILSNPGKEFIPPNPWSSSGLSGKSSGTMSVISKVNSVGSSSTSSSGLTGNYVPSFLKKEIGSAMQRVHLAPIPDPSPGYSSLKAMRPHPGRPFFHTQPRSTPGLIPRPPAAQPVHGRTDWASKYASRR
Sequence of UniProt Q9BUB5 (whole entry, looked up): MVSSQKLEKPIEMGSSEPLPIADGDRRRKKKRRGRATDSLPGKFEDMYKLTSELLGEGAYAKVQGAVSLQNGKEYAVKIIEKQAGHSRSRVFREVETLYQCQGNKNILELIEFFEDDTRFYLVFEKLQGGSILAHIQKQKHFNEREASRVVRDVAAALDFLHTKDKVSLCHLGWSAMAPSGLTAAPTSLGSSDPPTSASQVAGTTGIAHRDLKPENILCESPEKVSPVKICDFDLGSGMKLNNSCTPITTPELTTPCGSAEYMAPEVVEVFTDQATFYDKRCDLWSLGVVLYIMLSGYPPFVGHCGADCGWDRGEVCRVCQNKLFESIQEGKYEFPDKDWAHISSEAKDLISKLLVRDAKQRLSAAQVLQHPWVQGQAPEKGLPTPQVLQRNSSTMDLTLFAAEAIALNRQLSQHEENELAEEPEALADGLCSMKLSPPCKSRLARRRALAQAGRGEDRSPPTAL
Sequence of UniProt P54762 (whole entry, looked up): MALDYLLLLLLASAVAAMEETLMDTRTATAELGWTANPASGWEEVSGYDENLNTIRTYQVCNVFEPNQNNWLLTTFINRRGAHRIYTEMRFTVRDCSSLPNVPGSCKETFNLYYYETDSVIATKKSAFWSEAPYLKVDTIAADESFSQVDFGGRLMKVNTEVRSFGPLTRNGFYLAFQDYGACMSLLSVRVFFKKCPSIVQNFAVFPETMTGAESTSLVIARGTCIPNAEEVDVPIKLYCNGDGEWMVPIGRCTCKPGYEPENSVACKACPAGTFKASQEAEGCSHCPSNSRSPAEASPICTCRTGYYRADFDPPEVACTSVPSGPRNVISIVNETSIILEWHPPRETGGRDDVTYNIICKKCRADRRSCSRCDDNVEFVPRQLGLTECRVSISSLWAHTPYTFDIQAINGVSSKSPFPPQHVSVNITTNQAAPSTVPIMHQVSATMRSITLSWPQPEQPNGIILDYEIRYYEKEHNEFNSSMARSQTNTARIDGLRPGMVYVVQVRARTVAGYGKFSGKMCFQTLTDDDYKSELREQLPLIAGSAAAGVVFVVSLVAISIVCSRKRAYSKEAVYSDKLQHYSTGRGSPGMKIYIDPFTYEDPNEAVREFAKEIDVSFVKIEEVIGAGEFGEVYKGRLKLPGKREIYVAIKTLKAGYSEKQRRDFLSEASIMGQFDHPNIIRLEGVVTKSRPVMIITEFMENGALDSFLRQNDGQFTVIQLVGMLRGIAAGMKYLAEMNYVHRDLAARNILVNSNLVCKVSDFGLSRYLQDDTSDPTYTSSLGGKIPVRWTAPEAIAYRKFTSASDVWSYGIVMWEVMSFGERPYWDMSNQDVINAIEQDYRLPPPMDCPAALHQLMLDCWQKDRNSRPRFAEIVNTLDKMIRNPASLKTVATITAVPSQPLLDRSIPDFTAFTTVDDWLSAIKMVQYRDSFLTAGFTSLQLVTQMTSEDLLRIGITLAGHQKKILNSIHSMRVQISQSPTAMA
Sequence of UniProt Q16832 (whole entry, looked up): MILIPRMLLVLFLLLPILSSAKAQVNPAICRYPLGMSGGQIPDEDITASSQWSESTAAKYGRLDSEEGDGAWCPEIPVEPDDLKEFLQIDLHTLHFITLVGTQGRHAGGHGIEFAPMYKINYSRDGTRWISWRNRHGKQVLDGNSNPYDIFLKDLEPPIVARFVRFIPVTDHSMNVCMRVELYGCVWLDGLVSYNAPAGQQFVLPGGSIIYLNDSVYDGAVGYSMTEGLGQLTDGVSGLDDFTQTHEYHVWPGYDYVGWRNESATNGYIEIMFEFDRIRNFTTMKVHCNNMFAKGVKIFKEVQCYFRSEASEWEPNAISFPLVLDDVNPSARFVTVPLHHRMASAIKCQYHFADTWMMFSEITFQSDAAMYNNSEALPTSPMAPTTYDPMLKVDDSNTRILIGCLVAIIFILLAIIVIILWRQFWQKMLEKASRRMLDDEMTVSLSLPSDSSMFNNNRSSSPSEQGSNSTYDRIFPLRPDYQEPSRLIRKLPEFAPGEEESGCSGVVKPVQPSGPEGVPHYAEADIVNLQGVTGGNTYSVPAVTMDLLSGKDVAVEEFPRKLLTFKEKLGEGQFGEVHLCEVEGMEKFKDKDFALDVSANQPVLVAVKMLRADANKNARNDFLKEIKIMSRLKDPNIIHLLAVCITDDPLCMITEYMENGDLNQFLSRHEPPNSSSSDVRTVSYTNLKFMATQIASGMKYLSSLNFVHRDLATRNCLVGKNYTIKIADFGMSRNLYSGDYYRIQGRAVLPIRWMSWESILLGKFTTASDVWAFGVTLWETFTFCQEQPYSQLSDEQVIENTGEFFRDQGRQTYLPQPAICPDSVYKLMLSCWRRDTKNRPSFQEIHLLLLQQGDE
Sequence of UniProt Q9UQ88 (whole entry, looked up): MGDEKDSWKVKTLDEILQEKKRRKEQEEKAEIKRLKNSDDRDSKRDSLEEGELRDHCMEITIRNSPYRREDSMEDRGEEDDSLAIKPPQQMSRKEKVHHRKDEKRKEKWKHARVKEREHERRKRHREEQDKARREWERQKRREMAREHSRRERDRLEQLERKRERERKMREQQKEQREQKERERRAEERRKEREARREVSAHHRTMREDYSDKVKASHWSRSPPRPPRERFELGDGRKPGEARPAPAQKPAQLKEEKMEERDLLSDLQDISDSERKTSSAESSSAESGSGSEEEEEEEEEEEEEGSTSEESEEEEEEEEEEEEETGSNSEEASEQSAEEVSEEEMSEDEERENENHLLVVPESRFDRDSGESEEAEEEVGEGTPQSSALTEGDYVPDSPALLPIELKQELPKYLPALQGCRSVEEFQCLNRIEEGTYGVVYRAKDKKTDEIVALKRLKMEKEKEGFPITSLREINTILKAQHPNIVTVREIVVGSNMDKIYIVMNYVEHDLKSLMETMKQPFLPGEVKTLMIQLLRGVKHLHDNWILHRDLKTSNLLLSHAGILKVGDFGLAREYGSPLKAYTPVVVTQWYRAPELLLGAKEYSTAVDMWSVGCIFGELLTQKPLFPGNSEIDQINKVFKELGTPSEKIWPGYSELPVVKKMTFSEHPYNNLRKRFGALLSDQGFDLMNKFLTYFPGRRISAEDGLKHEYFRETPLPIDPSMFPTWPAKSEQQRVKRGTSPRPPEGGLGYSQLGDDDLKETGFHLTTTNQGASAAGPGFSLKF
Sequence of UniProt P62344 (whole entry, looked up): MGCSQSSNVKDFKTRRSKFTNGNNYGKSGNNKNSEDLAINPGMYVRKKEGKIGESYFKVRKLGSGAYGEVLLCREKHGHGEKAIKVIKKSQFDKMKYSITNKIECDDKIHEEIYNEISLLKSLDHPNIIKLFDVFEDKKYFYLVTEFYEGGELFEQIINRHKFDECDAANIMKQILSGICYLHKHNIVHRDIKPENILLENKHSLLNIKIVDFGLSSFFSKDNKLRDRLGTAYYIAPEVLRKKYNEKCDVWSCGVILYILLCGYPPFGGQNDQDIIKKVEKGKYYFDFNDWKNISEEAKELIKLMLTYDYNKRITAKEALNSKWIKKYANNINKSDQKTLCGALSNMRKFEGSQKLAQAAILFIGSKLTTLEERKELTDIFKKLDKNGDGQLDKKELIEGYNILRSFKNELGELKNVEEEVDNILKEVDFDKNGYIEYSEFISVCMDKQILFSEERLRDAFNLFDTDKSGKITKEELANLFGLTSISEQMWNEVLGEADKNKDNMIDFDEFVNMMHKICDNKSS

COc1ccc2oc(-c3ccc4nc(N)oc4c3)c/c(=N\c3ccccc3NC(=O)CCN)c2c1  remaining binding (Serine/threonine-protein kinase ICK (CILK1, Homo sapiens, UniProt Q9UPZ9); 1 µM): 95%
C=CC(=O)N1CCC(COCC(=O)N2CCN(c3nc(-c4cnc(N)nc4C(F)F)nc(N4CCOC[C@@H]4C)n3)CC2)CC1  remaining binding (Cyclin-dependent kinase 4 (CDK4, Homo sapiens, UniProt P11802); competition with immobilised ligand; 1 µM): 100%
Cc1cc(S(=O)(=O)N[C@H]2CC[C@H](CN3CCN(c4ccc(C5CCC(=O)NC5=O)cc4F)CC3)CC2)ccc1Nc1ncc(C(F)(F)F)c(N2CCC[C@](C)(O)C2)n1 (stereo partly shown)  remaining binding (Mitogen-activated protein kinase 7 (MAPK7, Homo sapiens, UniProt Q13164); competition with immobilised ligand; 1 µM): 4%
COc1cnc(Nc2cccc(S(N)(=O)=O)c2)nc1N1CCN(c2ccccc2)C(=O)C1  remaining binding (Calcium-dependent protein kinase 1 (CDPK1, Plasmodium falciparum, UniProt P62344); competition with immobilised ligand; 1 µM): 100%
C1=C/COCc2cc(ccc2OCCN2CCCC2)Nc2nccc(n2)-c2cccc(c2)COC/1  remaining binding (Phosphatidylinositol 4,5-bisphosphate 3-kinase catalytic subunit alpha isoform (PIK3CA, Homo sapiens, UniProt P42336, H1047Y); 0.1 µM): 53%
N[C@H]1CCN(c2nccc(-c3cnn4ncccc34)n2)C1  remaining binding (CDK19; 1 µM): 100%
CCCCC(=O)Nc1ccc(-c2ccc3ncn(CCC)c(=O)c3c2)cn1  remaining binding (Ephrin type-B receptor 1 (EPHB1, Homo sapiens, UniProt P54762); competition with immobilised ligand; 0.5 µM): 100%
CN(CCCC(F)(F)F)c1nccc(-c2cnn3ncccc23)n1  remaining binding (Cyclin-dependent kinase 11A (CDK11A, Homo sapiens, UniProt Q9UQ88); 1 µM): 100%
Cc1cc([C@@H](C)Nc2ccccc2C(=O)O)c2nc(N3CCC(F)(F)CC3)c(C#N)c(=O)n2c1  remaining binding (MAP kinase-interacting serine/threonine-protein kinase 1 (MKNK1, Homo sapiens, UniProt Q9BUB5); competition with immobilised ligand; 1 µM): 61%
CN(C)c1nccc(-c2cnn3ncccc23)n1  remaining binding (CDK19; 1 µM): 100%
FC(F)(F)Oc1cccc(-c2cnc3ccc(-c4ccncc4)nn23)c1  remaining binding (Mitogen-activated protein kinase kinase kinase 19 (MAP3K19, Homo sapiens, UniProt Q56UN5); competition with immobilised ligand; 5 µM): 12%
C[C@@H](c1ccc(-n2cnc3c(N)ncnc32)cc1)N1CCc2nn(C)c(Cc3ccccc3)c2C1=O  remaining binding (Discoidin domain-containing receptor 2 (DDR2, Homo sapiens, UniProt Q16832); competition with immobilised ligand; 0.1 µM): 8.2%
C[C@H]1CCN(c2nccc(-c3cnn4ncccc34)n2)C1  remaining binding (CDK19; 1 µM): 70%

For quick reference, copied from above:
Cc1cc(S(=O)(=O)N[C@H]2CC[C@H](CN3CCN(c4ccc(C5CCC(=O)NC5=O)cc4F)CC3)CC2)ccc1Nc1ncc(C(F)(F)F)c(N2CCC[C@](C)(O)C2)n1 (stereo partly shown)  remaining binding (Mitogen-activated protein kinase 7 (MAPK7, Homo sapiens, UniProt Q13164); competition with immobilised ligand; 1 µM): 4%
FC(F)(F)Oc1cccc(-c2cnc3ccc(-c4ccncc4)nn23)c1  remaining binding (Mitogen-activated protein kinase kinase kinase 19 (MAP3K19, Homo sapiens, UniProt Q56UN5); competition with immobilised ligand; 5 µM): 12%
